Assay results pooled from the literature.
Protocols differ between the studies behind these lines. ± marks the error that the study gave.

CCCCCn1cc(C(=O)c2ccc3ccccc3c2)c2ccccc21 has an Emax of 23.5 ± 3.9% (Cannabinoid receptor 2 (CNR2, Homo sapiens, UniProt P34972, L182I); Gαi1 engagement, agonist, BRET; relative to: reference agonist at wild-type CB2).
The ka2 of CC(C)[C@H](N)C(=O)N[C@@H](Cc1ccc(O)cc1)C(=O)N[C@@H](CCCCN)C(=O)N[C@H](C(=O)N[C@@H](CCCCN)C(=O)N[C@H](C(=O)N[C@@H](CCCCN)C(=O)N[C@H](C(=O)N[C@@H](CCCCN)C(=O)N[C@H](C(=O)N[C@@H](CCCCN)C(=O)N[C@H](C(=O)N[C@@H](CCCCN)C(=O)N[C@H](C(=O)N[C@@H](CCCCN)C(=O)N[C@H](C(=O)N[C@@H](CCCCN)C(=O)N[C@H](C(=O)O)[C@@H](C)O)C(C)C)[C@@H](C)O)C(C)C)[C@@H](C)O)C(C)C)[C@@H](C)O)C(C)C is reported as 0.007 s⁻¹ (binding, SPR two-state model; rVλ6Wil fibrils; 300 nM).
CCCCCn1cc(C(=O)c2cccc3c2CC(C)(C)C3)c2ccccc21 gave an Emax of 78.7 ± 8.5% (Cannabinoid receptor 2 (CNR2, Homo sapiens, UniProt P34972); Gαi1 engagement, agonist, BRET; HEK293T; relative to: reference agonist).
N=C(N)NCCC[C@@H]1NC(=O)[C@H](CCCCNC(=O)CC[C@H](NC(=O)CCOCCOCCOCCOCCNC(=O)CC[C@H](NC(=O)CN2CCN(CC(=O)O)CCN(CC(=O)O)CCN(CC(=O)O)CC2)C(=O)NCCOCCOCCOCCOCCC(=O)N[C@@H](CCC(=O)NCCCC[C@@H]2NC(=O)[C@@H](Cc3ccccc3)NC(=O)[C@H](CC(=O)O)NC(=O)CNC(=O)[C@H](CCCNC(=N)N)NC2=O)C(=O)NCCCC[C@@H]2NC(=O)[C@@H](Cc3ccccc3)NC(=O)[C@H](CC(=O)O)NC(=O)CNC(=O)[C@H](CCCNC(=N)N)NC2=O)C(=O)NCCCC[C@@H]2NC(=O)[C@@H](Cc3ccccc3)NC(=O)[C@H](CC(=O)O)NC(=O)CNC(=O)[C@H](CCCNC(=N)N)NC2=O)NC(=O)[C@@H](Cc2ccccc2)NC(=O)[C@H](CC(=O)O)NC(=O)CNC1=O [indium-111 labelled] — result for “tumour to muscle ratio”: 25.9 ± 15.6 (female athymic nude mouse; intravenous, 3 µCi, 72 h, U-87 MG glioma xenograft; relative to: tumour over muscle).
With C[C@@H](NC(=O)[C@@H](CCC(N)=O)NC(=O)[C@@H](C)NC(=O)[C@@H](CCCCN)NC(=O)[C@@H](CCC(N)=O)NC(=O)[C@@H](C)NC(=O)[C@@H](CCCCN)NC(=O)[C@@H](CCC(N)=O)NC(=O)[C@@H](C)NC(=O)[C@@H](CCC(N)=O)NC(=O)[C@@H](CCCCN)NC(=O)[C@@H](C)NC(=O)[C@@H](CCC(N)=O)NC(=O)[C@@H](CCCCN)NC(=O)[C@@H](C)NC(=O)[C@@H](CCC(N)=O)NC(=O)[C@@H](C)NC(=O)[C@@H](CCCCN)NC(=O)[C@@H](CCC(N)=O)NC(=O)[C@@H](C)NC(=O)[C@@H](CCCCN)NC(=O)[C@@H](CO)NC(=O)[C@@H](Cc1ccc(O)cc1)NC(=O)CNC(=O)CNC(=O)CN)C(=O)N[C@H](CCCCN)C(=O)N[C@H](CCC(N)=O)C(=O)N[C@H](C)C(=O)N[C@H](CCCCN)C(=O)N[C@H](CCC(N)=O)C(=O)O the ka2 was 0.0074 s⁻¹ (binding, SPR two-state model; rVλ6Wil fibrils; 300 nM).
The inhibition of CC(=O)NC(Cc1ccc(Br)c(Cl)c1)C(=O)N[C@@H](C)C(=O)N1CCC[C@H]1C(=O)N1CCC[C@H]1C(=O)N[C@@H](CCC(=O)O)C(=O)N[C@@H](Cc1c[nH]cn1)C(=O)N[C@@H](CO)C(=O)N[C@H](C(=O)N[C@@H](C)C(N)=O)[C@@H](C)OP(=O)(O)O (some centres unmarked) is reported as 2.24% (BDNF/NT-3 growth factors receptor (NTRK2, Homo sapiens, UniProt Q16620); cell-free assay, inhibitor; 10 µM).
NCCCC[C@H](NC(=O)CNC(=O)CNC(=O)[C@H](CCCCN)NC(=O)CNC(=O)CNC(=O)CNC(=O)[C@H](CCCCN)NC(=O)CNC(=O)CNC(=O)[C@H](CCCCN)NC(=O)CNC(=O)CNC(=O)CNC(=O)[C@H](CCCCN)NC(=O)CNC(=O)CNC(=O)[C@H](CCCCN)NC(=O)CNC(=O)CNC(=O)CNC(=O)[C@H](CCCCN)NC(=O)CNC(=O)CNC(=O)[C@H](CCCCN)NC(=O)[C@H](CO)NC(=O)[C@H](Cc1ccc(O)cc1)NC(=O)CNC(=O)CNC(=O)CN)C(=O)NCC(=O)O — result for “association rate constant”: 77000 M⁻¹ s⁻¹ (binding, SPR Langmuir fit; rVλ6Wil fibrils; 300 nM, pH 7.4).
For CCCCCc1cc(O)c2c(c1)OC(C)(C)C1CCC(C)=CC21 (single isomer, unassigned; (-)), inhibition read “no inhibition” (UDP-glucuronosyltransferase 2B15 (UGT2B15, Homo sapiens, UniProt P54855); oxazepam glucuronidation; recombinant microsomes; 10 or 100 µM, together with: oxazepam).
CSCC[C@H](NC(=O)[C@H](CCCNC(=N)N)NC(=O)[C@H](CCCNC(=N)N)NC(=O)[C@H](CCCCN)NC(=O)[C@H](C)NC(=O)[C@H](CCCNC(=N)N)NC(=O)CNC(=O)[C@@H](NC(=O)CN1CCN(CC(=O)O)CCN(CC(=O)O)CCN(CC(=O)O)CC1)[C@@H](C)O)C(=O)N[C@@H](CCC(N)=O)C(=O)N[C@@H](Cc1ccc(O)cc1)C(=O)N[C@@H](CC(N)=O)C(=O)N[C@@H](CCCNC(=N)N)C(=O)N[C@@H](CCCNC(=N)N)C(=O)O [gallium-68 labelled] has a bacterial binding of 48% (Staphylococcus aureus; concentration not given, 120 min, 37 °C).
For CCCC[C@H](NC(=O)CNC(=O)CNC(=O)c1ccc(NN)nc1)C(=O)N[C@H]1CC(=O)NCCCC[C@@H](C(N)=O)NC(=O)[C@H](Cc2c[nH]c3ccccc23)NC(=O)[C@H](CCCNC(=N)N)NC(=O)[C@@H](Cc2ccccc2)NC(=O)[C@H](Cc2c[nH]cn2)NC1=O [technetium-99m labelled], the uptake was 1.88 ± 1.06 %ID (C57 mouse, B16/F1 melanoma, intestines; intravenous, 4 h).
Under “V1/2 of inactivation”, CCN(Cc1ccccc1)C(=O)CCc1nc(CN2CCN(C(=O)Cc3ccc(OC)c(OC)c3)CC2)no1 is recorded as -92.5 ± 11.8 mV (Sodium channel protein type 11 subunit alpha (Scn11a, Rattus norvegicus, UniProt O88457); whole-cell patch clamp; rat DRG neurons; 100 nM).
With CN[C@](C)(C[18F])C(=O)O the tracer uptake was 4.2 %ID/g (MDA-MB-468 tumour model; host not given, liver; 30 min, tumour-bearing).
The Emax of CCCCCn1cc(C(=O)c2ccc3c(c2)CC(C)(C)C3)c2ccccc21 is reported as 32.4 ± 12.5% (Cannabinoid receptor 2 (CNR2, Homo sapiens, UniProt P34972, V261L); Gαi1 engagement, agonist, BRET; relative to: reference agonist at wild-type CB2).
CCOC(=O)C1C(OC(c2ccc(Cl)cc2)c2ccc(Cl)cc2)CC2CCC1N2C (single isomer, unassigned) — result for Ki: “inactive” (rat 5-HT2 receptors; binding, radioligand displacement; inactive if below 75% at 10000 nM, together with: [3H]ketanserin).
For C[C@H](NC(=O)[C@H](CCC(N)=O)NC(=O)[C@H](CCCCN)NC(=O)[C@H](C)NC(=O)[C@@H]1CCCN1C(=O)[C@H](C)NC(=O)[C@H](CCCCN)NC(=O)[C@H](CCC(N)=O)NC(=O)[C@H](C)NC(=O)[C@H](CCCCN)NC(=O)[C@H](CCC(N)=O)NC(=O)[C@@H]1CCCN1C(=O)[C@H](CCC(N)=O)NC(=O)[C@H](CCCCN)NC(=O)[C@H](C)NC(=O)[C@H](CCC(N)=O)NC(=O)[C@H](CCCCN)NC(=O)[C@H](C)NC(=O)[C@@H]1CCCN1C(=O)[C@H](C)NC(=O)[C@H](CCCCN)NC(=O)[C@H](CCC(N)=O)NC(=O)[C@H](C)NC(=O)[C@H](CCCCN)NC(=O)[C@H](CO)NC(=O)[C@H](Cc1ccc(O)cc1)NC(=O)CNC(=O)CNC(=O)CN)C(=O)N[C@@H](CCCCN)C(=O)N[C@@H](CCC(N)=O)C(=O)O, “association rate constant” read 83000 M⁻¹ s⁻¹ (binding, SPR Langmuir fit; rVλ6Wil fibrils; 300 nM, pH 7.4).
Under “tumour to tissue ratio”, N=C(N)NCCC[C@@H]1NC(=O)[C@H](CCCCNC(=O)CNC(=O)CNC(=O)CNC(=O)CC[C@H](NC(=O)CCOCCOCCOCCOCCNC(=O)CC[C@H](NC(=O)CN2CCN(CC(=O)O)CCN(CC(=O)O)CCN(CC(=O)O)CC2)C(=O)NCCOCCOCCOCCOCCC(=O)N[C@@H](CCC(=O)NCC(=O)NCC(=O)NCC(=O)NCCCC[C@@H]2NC(=O)[C@@H](Cc3ccccc3)NC(=O)[C@H](CC(=O)O)NC(=O)CNC(=O)[C@H](CCCNC(=N)N)NC2=O)C(=O)NCC(=O)NCC(=O)NCC(=O)NCCCC[C@@H]2NC(=O)[C@@H](Cc3ccccc3)NC(=O)[C@H](CC(=O)O)NC(=O)CNC(=O)[C@H](CCCNC(=N)N)NC2=O)C(=O)NCC(=O)NCC(=O)NCC(=O)NCCCC[C@@H]2NC(=O)[C@@H](Cc3ccccc3)NC(=O)[C@H](CC(=O)O)NC(=O)CNC(=O)[C@H](CCCNC(=N)N)NC2=O)NC(=O)[C@@H](Cc2ccccc2)NC(=O)[C@H](CC(=O)O)NC(=O)CNC1=O [indium-111 labelled] is recorded as 2.96 ± 0.36 (athymic nude mice, female, U-87 MG glioma xenograft, tumour and kidney; intravenous, 24 h; relative to: tumour over kidney).
With CCCCCCCCC(=O)NCc1ccc(O)c(OC)c1 the IC50 was over 4 µg/mL (mAb 6-AT6; antibody binding, indirect competitive ELISA; together with: coating antigen 1-OVA).

Excerpt of the above:
N=C(N)NCCC[C@@H]1NC(=O)[C@H](CCCCNC(=O)CC[C@H](NC(=O)CCOCCOCCOCCOCCNC(=O)CC[C@H](NC(=O)CN2CCN(CC(=O)O)CCN(CC(=O)O)CCN(CC(=O)O)CC2)C(=O)NCCOCCOCCOCCOCCC(=O)N[C@@H](CCC(=O)NCCCC[C@@H]2NC(=O)[C@@H](Cc3ccccc3)NC(=O)[C@H](CC(=O)O)NC(=O)CNC(=O)[C@H](CCCNC(=N)N)NC2=O)C(=O)NCCCC[C@@H]2NC(=O)[C@@H](Cc3ccccc3)NC(=O)[C@H](CC(=O)O)NC(=O)CNC(=O)[C@H](CCCNC(=N)N)NC2=O)C(=O)NCCCC[C@@H]2NC(=O)[C@@H](Cc3ccccc3)NC(=O)[C@H](CC(=O)O)NC(=O)CNC(=O)[C@H](CCCNC(=N)N)NC2=O)NC(=O)[C@@H](Cc2ccccc2)NC(=O)[C@H](CC(=O)O)NC(=O)CNC1=O [indium-111 labelled] — result for “tumour to muscle ratio”: 25.9 ± 15.6 (female athymic nude mouse; intravenous, 3 µCi, 72 h, U-87 MG glioma xenograft; relative to: tumour over muscle).
With C[C@@H](NC(=O)[C@@H](CCC(N)=O)NC(=O)[C@@H](C)NC(=O)[C@@H](CCCCN)NC(=O)[C@@H](CCC(N)=O)NC(=O)[C@@H](C)NC(=O)[C@@H](CCCCN)NC(=O)[C@@H](CCC(N)=O)NC(=O)[C@@H](C)NC(=O)[C@@H](CCC(N)=O)NC(=O)[C@@H](CCCCN)NC(=O)[C@@H](C)NC(=O)[C@@H](CCC(N)=O)NC(=O)[C@@H](CCCCN)NC(=O)[C@@H](C)NC(=O)[C@@H](CCC(N)=O)NC(=O)[C@@H](C)NC(=O)[C@@H](CCCCN)NC(=O)[C@@H](CCC(N)=O)NC(=O)[C@@H](C)NC(=O)[C@@H](CCCCN)NC(=O)[C@@H](CO)NC(=O)[C@@H](Cc1ccc(O)cc1)NC(=O)CNC(=O)CNC(=O)CN)C(=O)N[C@H](CCCCN)C(=O)N[C@H](CCC(N)=O)C(=O)N[C@H](C)C(=O)N[C@H](CCCCN)C(=O)N[C@H](CCC(N)=O)C(=O)O the ka2 was 0.0074 s⁻¹ (binding, SPR two-state model; rVλ6Wil fibrils; 300 nM).
The inhibition of CC(=O)NC(Cc1ccc(Br)c(Cl)c1)C(=O)N[C@@H](C)C(=O)N1CCC[C@H]1C(=O)N1CCC[C@H]1C(=O)N[C@@H](CCC(=O)O)C(=O)N[C@@H](Cc1c[nH]cn1)C(=O)N[C@@H](CO)C(=O)N[C@H](C(=O)N[C@@H](C)C(N)=O)[C@@H](C)OP(=O)(O)O (some centres unmarked) is reported as 2.24% (BDNF/NT-3 growth factors receptor (NTRK2, Homo sapiens, UniProt Q16620); cell-free assay, inhibitor; 10 µM).
